Experimental data pooled from the literature.
A part holds a random share of what one study measured. Substitutions count along the parent as printed.

Set 1 — technique: universal PBM; molecule type: double-stranded DNA, one strand shown; sample: in vitro; concentration: not given; reading: higher = stronger binding; quantity: E-score
Target: Sal-like protein 4, full length isoform B (SALL4, Homo sapiens, UniProt Q9UJQ4-2, residues 1-616)
Notes: 8-mer, flanks averaged, mean of replicates
Target sequence (chain): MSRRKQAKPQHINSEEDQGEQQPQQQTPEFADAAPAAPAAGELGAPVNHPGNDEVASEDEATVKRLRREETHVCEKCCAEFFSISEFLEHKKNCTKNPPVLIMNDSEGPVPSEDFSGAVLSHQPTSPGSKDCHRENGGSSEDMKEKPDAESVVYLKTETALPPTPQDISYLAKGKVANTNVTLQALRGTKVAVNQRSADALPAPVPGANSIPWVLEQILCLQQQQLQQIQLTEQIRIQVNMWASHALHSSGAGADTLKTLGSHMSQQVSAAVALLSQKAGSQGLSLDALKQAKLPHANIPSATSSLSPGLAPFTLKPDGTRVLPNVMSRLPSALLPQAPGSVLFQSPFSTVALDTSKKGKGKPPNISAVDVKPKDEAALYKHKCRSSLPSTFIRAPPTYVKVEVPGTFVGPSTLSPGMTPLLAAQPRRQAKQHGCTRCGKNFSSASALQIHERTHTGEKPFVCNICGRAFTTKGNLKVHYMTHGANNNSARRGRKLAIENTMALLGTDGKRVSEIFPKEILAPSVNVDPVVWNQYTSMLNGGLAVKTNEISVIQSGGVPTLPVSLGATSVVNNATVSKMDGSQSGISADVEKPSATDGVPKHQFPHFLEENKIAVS
CGAACCAC: -0.277
GGAGAGTA: 0.0307
GTCACTGA: -0.0568
GCAGACAC: -0.0888
CGGTGCAC: -0.319
AACTTCAG: -0.00556
CTCAGAAA: 0.0584
AGATCTGA: -0.11
GACACTCC: -0.128
AGGTTCCC: -0.24
AAAGGTGC: -0.0394
CTCCGTGA: -0.147
CGGGACAG: -0.175
AGCCCAGA: -0.27
AACTATGC: 0.177
CTTCGTCC: -0.199
AGTCTCAG: -0.156
AGGGTTAA: 0.0709
ACTAGTAG: 0.157

Set 2 — technique: protein-binding microarray; molecule type: double-stranded DNA, one strand shown; sample: in vitro; concentration: 2540 nM top; notes: 60-bp whole probe; together with: salmon DNA 0.4 mg/ml; relative to: random background probes; reading: higher = stronger binding; quantity: fitted relative affinity; all sequences stand within: GCCTAGCAC … GTCTTGATTCGCTTGACGCTGCTG
Target: Interferon regulatory factor 3, full length, phosphomimetic (IRF3, Homo sapiens, UniProt Q14653, residues 1-427, S386D/S396D/S398D/S402D/T404D/S405D)
Construct (chain): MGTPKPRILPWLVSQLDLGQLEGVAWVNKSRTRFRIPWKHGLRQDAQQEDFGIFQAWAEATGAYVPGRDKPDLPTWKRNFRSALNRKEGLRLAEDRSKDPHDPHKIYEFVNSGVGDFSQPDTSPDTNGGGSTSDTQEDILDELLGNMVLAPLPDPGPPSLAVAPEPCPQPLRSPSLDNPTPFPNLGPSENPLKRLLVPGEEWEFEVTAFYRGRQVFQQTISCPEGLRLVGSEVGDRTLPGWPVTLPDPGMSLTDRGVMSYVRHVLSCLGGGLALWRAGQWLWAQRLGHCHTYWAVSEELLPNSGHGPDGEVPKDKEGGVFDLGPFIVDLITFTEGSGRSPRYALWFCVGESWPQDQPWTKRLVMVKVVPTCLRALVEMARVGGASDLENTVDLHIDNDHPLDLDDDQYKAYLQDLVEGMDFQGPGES
GACGATATCAGTTTGGAGACGTGCTAG: 0.735 z-score
TCAAGTTTGACATCTTCAACTGTGCTA: -0.296 z-score
TTAGGTTTCGGTTCCGGCTAGTGCTAG: 10.7 z-score
TTAGAACTGGGGTCTGGATTAGTGCTA: -0.792 z-score
GACGGACGGGGTTTCGGGACGTGCTAG: 1.1 z-score
ACTTTTTTTTTTCCCTGAAAGTGCTAG: 2.15 z-score
GACGGTTTCCTTATCATGACGTGCTAG: 7.77 z-score
TCATCTTTACTGCTCCAACTGTGCTAG: 1.25 z-score
TTAGGTATCGATTATCGGTTAGTGCTA: 2.15 z-score
TTAGGGCTCGGACTGGGTTAGTGCTAG: -1.02 z-score
TCATACATGCATATAGTACTGTGCTAG: 0.291 z-score
TTAGGTCTCCTTCTCCTATAGTGCTAG: 4.77 z-score
TTCGGTTTCGACACTGGGTTAGTGCTA: 3.87 z-score
AGAAACTGTGAGGAGGGGAAGTGCTAG: 0.0102 z-score
GACGATTTCAGACAGGAGACGTGCTAG: 0.686 z-score
TCATTTCTATCTCTGTTACTGTGCTAG: 2.87 z-score
TCATGTCTCCCCCATCTTACTGTGCTA: 0.9 z-score
TCTCTTTCCAACTCTGTTTTCGTGCTA: 4.43 z-score
TTAGATATCGGGTTTCGAATAGTGCTA: 1.45 z-score

Set 3 — target: CCNA1, cyclin fold, Cln2 fusion (human); technique: yeast growth competition, sequencing; sample: yeast; notes: weak parent motif; relative to: not given; reading: higher = stronger binding; quantity: normalised enrichment score
Parent: CDC6 docking peptide (human); TLKGRRLVFDNQL; partner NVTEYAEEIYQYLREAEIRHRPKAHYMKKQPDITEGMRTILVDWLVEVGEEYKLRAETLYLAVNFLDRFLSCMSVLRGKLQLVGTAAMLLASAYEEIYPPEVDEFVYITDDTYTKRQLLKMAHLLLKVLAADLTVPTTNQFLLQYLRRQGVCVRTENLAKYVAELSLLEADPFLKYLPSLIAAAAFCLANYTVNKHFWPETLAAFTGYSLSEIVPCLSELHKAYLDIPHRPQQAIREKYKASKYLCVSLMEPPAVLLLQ
N11C: 0.385
D10E: -0.0915
V8W: 0.471
V8M: 0.111
L2Y: 0.0585
L13V: 0.0965
R6K: 0.241
R5K F9L: 0.0863
R6G: -0.00799
Q12H: 0.338
R6A: 0.0875
L2S: -0.194
K3D: 0.0661
R6T: 0.359
G4T: 0.0553
F9C: -0.0148
N11Q: 0.0107
R5H: -0.147
R6L: 0.419
L2R: 0.567
N11P: 0.327

Set 4 — technique: RNA Bind-n-Seq; molecule type: RNA; sample: in vitro; concentration: 365 nM; relative to: no-protein control; reading: higher = stronger binding; quantity: RBNS enrichment (R)
Target: RNA binding protein fox-1 homolog 2, RRM domain, GST-SBP tag (RBFOX2, Homo sapiens, UniProt O43251-10, residues 100-194)
Notes: natural RNA segment, single round, ends assumed
All sequences stand within: GGGAGUUCUACAGUCCGACGAUC … UGGAAUUCUCGGGUGCCAA
Construct (chain): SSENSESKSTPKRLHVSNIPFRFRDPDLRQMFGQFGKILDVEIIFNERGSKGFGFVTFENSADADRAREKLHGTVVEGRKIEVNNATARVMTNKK
ACAUUUUUGUUUUGCUUGCCAUGAAUUUCAACUUCCACCACCCAGUGAAUUGAUUUAUAAAUUGCUAUGCUUUGCUGUUUUUCUGUUGCUGUGGAACUUAAAGAAUGUGA: 1.07
CAGGUGUACCUCAAUCCACAUUACAGCCAUGCUCCUAAUGUACAUGGACAUUUUUGUAACUCAGCUCAUAUUCUGACUGUAUUUGAGAAGCUGGCUGUUUAAGGGAACCC: 0.613
UUUUUCACUAAGAAUUUAGUUAAAUUGUCUUUACUAUACAGCAAGAAAUCUCUUUAGAAGAAACUUUAUGAGUUUAUAAAUGAGAAAACCUUUCAGCAGUUAUGUAGCCU: 0.428
ACUAAGUAGUCUUUCUGAAAACUGUUGGGUUCUAGGCAUUCCUGAGAAAUUGAAAGUGGCUACCUUUCAUGUCAAAAAUGUUGAUCUAUUAUAAAUAAAAUGUUUUUGCA: 0.44
UGAAAGGUCCUGGGGAGAGCUUCGGGGCUCCCCCGAUGCCCAUCUCCAAUGCCAAUUCUUUGGUUUCUUCUUCUUGGCAGUGUUGAAGCUAGAACUCAGGGCGCUGAAUA: 0.311
CGUCUUGGUGCUGUGAAGCAUUAGGCCGACAACCGAGUCCACACCUGGUGACCAGGGCAGUAGGCGUAAUUAAGCAACAAUCGAUCUUCCUUCAGGAGAGCUUGUCACUU: 0.211
AACCCGGGGUGCCAGGAACACACACAUCCUCCAUCCCAGCAUAGAGAAUGGGGACUCCCUGAGUAAUGGGAGUUCUUUCAUGGCCUCUGCUUGGGGUGGGGGAGUCAGCA: 1.11
CAGGUCAUCAAGCCGAGAGGGCGUCAAAGAGGAAGCCUGGGCUGGGAUCCUUAGGCUCAGCUGUCUGUCUAAUCCCAGAGCUAAGCCCUUUCUGCUUCGGGCAGCCUGGA: 0.335

Set 5 — technique: DHFR PCA, deep sequencing; sample: yeast; together with: (+)-ABA 4.8 µM; relative to: wild-type fitted maximum; reading: higher = stronger binding; quantity: relative binding score
Target: ABI1, truncated, D143A, DHFR fusion (Arabidopsis thaliana)
Notes: methotrexate growth selection, single substitutions
Parent: PYL1, truncated, DHFR fusion (Arabidopsis thaliana); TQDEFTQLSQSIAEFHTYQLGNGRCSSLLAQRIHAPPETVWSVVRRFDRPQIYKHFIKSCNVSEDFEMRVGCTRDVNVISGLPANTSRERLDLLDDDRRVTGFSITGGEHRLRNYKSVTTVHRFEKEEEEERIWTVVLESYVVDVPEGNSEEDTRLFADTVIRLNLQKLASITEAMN; partner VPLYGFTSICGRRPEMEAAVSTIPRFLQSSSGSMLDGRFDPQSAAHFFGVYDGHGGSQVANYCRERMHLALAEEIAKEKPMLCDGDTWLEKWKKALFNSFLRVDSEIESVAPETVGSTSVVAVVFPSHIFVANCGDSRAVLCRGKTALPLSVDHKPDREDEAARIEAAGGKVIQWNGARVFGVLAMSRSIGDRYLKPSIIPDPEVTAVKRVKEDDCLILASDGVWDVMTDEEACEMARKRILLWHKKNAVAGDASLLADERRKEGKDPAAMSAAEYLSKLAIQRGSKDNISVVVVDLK
G148N: 54%
V121D: -6.41%
T39G: 18.5%
E174M: 29.2%
V70T: 45.9%
E64I: 48.3%
F47D: -15.8%
G108C: 7.42%
P146V: 7.96%
A35D: -2.49%
L82M: 62.3%
E139Q: 71%
I12M: 30.7%
N177K: 76.3%
A30E: 41.7%
L29T: 12.8%

Some of these lines once more (set 5):
E174M: 29.2%
V70T: 45.9%
E64I: 48.3%
F47D: -15.8%
G108C: 7.42%
P146V: 7.96%
A35D: -2.49%
L82M: 62.3%
E139Q: 71%
I12M: 30.7%
N177K: 76.3%
A30E: 41.7%
L29T: 12.8%
